Measurements of several laboratories.
Each line is one published result; not all experiments were run side by side. “And” joins repeats or separate records; there may be more than shown. ± marks the error that the study gave.
NR3C1: Glucocorticoid receptor (NR3C1, Homo sapiens, UniProt P04150)

The chains behind the UniProt entries cited, without tags or fusion partners.
UniProt P04150, whole entry: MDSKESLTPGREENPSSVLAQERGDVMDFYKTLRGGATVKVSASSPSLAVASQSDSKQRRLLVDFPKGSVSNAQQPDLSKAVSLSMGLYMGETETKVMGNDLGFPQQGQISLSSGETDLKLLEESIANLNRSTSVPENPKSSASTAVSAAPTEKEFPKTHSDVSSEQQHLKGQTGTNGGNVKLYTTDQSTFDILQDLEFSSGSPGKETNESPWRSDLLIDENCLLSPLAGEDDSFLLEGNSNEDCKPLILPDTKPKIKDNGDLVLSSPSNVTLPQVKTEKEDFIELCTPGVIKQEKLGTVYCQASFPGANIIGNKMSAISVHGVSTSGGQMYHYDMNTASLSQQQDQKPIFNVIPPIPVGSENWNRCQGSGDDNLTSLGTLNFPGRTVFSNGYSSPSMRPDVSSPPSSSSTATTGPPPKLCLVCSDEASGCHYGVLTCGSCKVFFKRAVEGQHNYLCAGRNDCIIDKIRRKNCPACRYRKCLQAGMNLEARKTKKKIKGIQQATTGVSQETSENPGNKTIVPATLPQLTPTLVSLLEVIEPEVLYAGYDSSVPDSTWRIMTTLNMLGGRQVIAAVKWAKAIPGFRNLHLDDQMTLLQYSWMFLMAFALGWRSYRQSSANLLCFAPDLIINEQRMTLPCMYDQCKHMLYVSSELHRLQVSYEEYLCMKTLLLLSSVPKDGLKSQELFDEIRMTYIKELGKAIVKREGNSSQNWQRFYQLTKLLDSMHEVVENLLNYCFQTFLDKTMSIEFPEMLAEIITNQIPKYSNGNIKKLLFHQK
UniProt P10636, whole entry, looked up: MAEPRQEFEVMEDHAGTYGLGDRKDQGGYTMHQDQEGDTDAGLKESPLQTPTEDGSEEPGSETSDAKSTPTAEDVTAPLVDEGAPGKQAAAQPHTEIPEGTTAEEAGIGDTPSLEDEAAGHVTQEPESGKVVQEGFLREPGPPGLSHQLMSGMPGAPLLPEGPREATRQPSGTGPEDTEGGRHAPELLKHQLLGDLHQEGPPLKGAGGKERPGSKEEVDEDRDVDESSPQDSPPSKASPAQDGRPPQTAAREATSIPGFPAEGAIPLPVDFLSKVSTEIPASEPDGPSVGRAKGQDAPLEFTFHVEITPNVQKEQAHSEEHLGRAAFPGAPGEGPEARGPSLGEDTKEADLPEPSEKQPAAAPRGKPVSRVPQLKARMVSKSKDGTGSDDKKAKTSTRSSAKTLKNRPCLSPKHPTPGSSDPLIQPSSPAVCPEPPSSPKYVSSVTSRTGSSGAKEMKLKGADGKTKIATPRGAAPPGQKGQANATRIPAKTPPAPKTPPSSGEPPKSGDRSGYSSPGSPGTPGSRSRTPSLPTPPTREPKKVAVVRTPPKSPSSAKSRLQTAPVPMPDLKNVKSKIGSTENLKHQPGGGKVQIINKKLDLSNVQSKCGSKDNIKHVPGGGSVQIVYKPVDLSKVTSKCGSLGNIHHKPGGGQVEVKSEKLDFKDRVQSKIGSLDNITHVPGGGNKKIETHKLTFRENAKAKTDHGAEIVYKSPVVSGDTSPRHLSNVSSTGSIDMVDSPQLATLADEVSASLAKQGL
UniProt Q14004, whole entry: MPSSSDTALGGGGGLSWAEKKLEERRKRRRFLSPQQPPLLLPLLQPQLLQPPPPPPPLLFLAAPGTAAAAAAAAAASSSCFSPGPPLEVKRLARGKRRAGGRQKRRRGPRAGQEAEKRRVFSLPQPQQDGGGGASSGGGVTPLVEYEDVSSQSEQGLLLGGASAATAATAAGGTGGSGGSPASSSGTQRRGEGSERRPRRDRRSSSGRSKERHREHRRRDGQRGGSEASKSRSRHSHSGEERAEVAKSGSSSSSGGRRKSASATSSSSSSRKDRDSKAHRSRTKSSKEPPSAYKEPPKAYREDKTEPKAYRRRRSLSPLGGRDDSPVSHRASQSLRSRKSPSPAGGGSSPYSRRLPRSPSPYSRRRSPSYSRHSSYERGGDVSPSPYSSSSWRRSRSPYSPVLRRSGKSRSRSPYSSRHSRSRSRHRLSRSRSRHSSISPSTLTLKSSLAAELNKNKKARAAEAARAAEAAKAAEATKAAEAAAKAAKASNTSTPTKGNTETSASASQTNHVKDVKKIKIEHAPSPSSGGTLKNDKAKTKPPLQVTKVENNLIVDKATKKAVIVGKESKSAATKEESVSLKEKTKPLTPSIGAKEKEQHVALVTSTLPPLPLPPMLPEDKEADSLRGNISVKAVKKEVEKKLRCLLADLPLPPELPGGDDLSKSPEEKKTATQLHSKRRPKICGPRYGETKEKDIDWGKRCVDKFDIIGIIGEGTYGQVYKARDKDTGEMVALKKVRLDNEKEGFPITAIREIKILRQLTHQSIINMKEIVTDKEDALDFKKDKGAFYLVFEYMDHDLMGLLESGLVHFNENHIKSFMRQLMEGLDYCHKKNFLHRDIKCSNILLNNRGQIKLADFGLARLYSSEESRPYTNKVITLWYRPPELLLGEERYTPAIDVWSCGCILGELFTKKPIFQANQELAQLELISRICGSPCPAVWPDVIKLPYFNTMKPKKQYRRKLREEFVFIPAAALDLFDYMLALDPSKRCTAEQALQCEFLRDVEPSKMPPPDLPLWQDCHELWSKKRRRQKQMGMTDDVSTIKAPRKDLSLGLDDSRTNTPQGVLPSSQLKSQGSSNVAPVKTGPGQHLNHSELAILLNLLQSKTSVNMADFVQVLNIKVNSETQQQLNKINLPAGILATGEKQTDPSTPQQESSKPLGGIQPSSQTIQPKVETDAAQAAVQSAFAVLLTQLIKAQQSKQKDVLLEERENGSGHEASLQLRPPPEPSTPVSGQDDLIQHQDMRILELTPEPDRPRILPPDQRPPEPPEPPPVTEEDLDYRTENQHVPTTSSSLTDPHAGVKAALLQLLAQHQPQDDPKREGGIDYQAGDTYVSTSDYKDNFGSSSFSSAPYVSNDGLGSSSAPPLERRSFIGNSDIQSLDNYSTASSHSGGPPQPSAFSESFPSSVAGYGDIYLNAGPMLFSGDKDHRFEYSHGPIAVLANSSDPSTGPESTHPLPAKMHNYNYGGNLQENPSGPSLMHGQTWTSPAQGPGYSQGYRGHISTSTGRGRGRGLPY

| SMILES | tested on | test | system | conditions | scale | quantity | result |
| --- | --- | --- | --- | --- | --- | --- | --- |
| C[C@@]12CC[C@@H]3[C@@H](CC[C@H]4C[C@@H](O)CC[C@]43C)[C@H]1CC[C@@H]2c1cc(C(F)(F)F)n[nH]1 | NR3C1 | nuclear translocation, agonist, enzyme fragment complementation |  |  |  | EC50 | > 9000 nM |
| Cc1cccc(NC(=O)c2nn(Cc3cnc[nH]3)c3c2CN(C(=O)c2ccc[nH]2)CC3)c1 | IDH1 R132G AML cells | Hoechst/Pyronin Y staining |  | 3 µM, 7 days |  | G0-phase cells | 65.7 ± 6.5% |
| CCCCCCCC(=O)OCC(COP(=O)(O)OC1C(O)C(O)C(OP(=O)(O)O)C(OP(=O)(O)O)C1O)OC(=O)CCCCCCC (stereo not drawn) | PLCδ1 PH-ASAP1 chimera | membrane binding, sedimentation | LUVs with PtdSer |  |  | Kd | 700 nM and 730 nM |
| Cc1cc(C)c(CNC(=O)c2cc(-c3ccc(N4CCN(CCNC(=O)CC56CC7CC(CC(C7)C5)C6)CC4)nc3)cc3c2cnn3C(C)C)c(=O)[nH]1 | sigma 2 receptor | radioligand binding |  | 10 µM |  | inhibition | 59% |
| Cc1c(O)cc2c(c1C)O[C@](C)(CCCC(C)C)CC2 | LNCaP | immunocytochemistry |  | 25 µM, 6 h |  | membrane-associated PDK1 | ~50% |
| Cc1ccc([C@H](CC(=O)O)NC(=O)Nc2c(O)c(C)cn(Cc3ccccc3Cl)c2=O)cc1 |  | measured: hCD45+ hCD19+ | LAX7R xenograft, NSG mouse, bone marrow and spleen | intraperitoneal, 60 mg/kg, 8 h |  | leukemic cells | no effect |
| CCN1CCN(Cc2ccc(NC(=O)c3ccc(C)c(Oc4ncnc5cc(OC)c(OC)cc45)c3)cc2C(F)(F)F)CC1 | FLT3-ITD kinase domain human | enzyme activity, Z'-LYTE |  | together with: ATP at Km |  | IC50 | 440 nM |
| c1cc2cn[nH]c2cc1-c1cnc2ccc(NC3CCOCC3)nn12 | HuR | western blot | cytoplasm | concentration not given | relative to: untreated | protein level | decreased |
| CC(C)c1cc2c(N3CCN(C4=NCC(C)(C)S4)CC3)ncnc2s1 | MLL-ENL transduced mouse BMC | cell growth, MTT |  |  |  | GI50 | ~5000 nM |
| Nc1c(C(=O)Nc2c(F)cc(F)cc2Br)sc2nc3c(cc12)CCC3 | H1299 |  |  | concentration not given, 12 h |  | GSH level | decreased |
| CCCCCCCCCCCCCC=C[C@@H](O)[C@H](CO[C@@H]1O[C@H](CO)[C@@H](O[C@@H]2O[C@H](CO)[C@H](O)[C@H](O[C@]3(C(=O)O)C[C@H](O)[C@@H](NC(C)=O)[C@H]([C@H](O)[C@@H](CO)O[C@]4(C(=O)O)C[C@H](O)[C@@H](NC(C)=O)[C@H]([C@H](O)[C@H](O)CO)O4)O3)[C@H]2O)[C@H](O)[C@H]1O)NC(=O)CCCCCCCCCCCCCCCCC |  |  | C57BL/6 mouse, serum | intravenous, dose not given, together with: α-GalCer 1 µg |  | serum IL-4 level | inhibited |
| Fc1cc(-c2ccc3c(n2)[nH]c2ccncc23)ccn1 [isotope labelled] | Microtubule-associated protein tau, paired helical filaments (MAPT, Homo sapiens, UniProt P10636) | radioligand binding | PHF tau brain homogenate | 26.56 nM | higher = more binding | specific binding | 13.2 a.u. |
| C[C@H](CCC(=O)NN)[C@@H]1CC[C@@H]2[C@H]3CC[C@H]4C[C@@H](O)CC[C@@]4(C)[C@@H]3CC[C@]21C | NR3C1 | nuclear translocation, agonist, enzyme fragment complementation |  |  |  | EC50 | > 9000 nM |
| C[C@]12CCC(=O)C=C1CCC1C2CC[C@]2(C)C(n3cnc4ccccc43)=CCC12 (stereo partly drawn) | LAPC4 | cell proliferation, MTT |  | 7 days, without DHT |  | IC50 | 3000 nM |
| Fc1cccc(-n2cnc3c(NCc4nc5cc(Cl)ccc5[nH]4)nc(N4CCNCC4)nc32)c1 | Cyclin-dependent kinase 13 (CDK13, Homo sapiens, UniProt Q14004) | KINOMEscan competition binding |  | 10 µM | relative to: control | remaining binding | 88% |
| O=C(Nc1cccnn1)N1CC(Oc2ccc(-c3ccccc3F)cn2)C1 |  | measured: anandamide | healthy humans, plasma | oral, repeated dosing, trough concentration-response |  | Emax | ~3 ng/mL |
| COc1cc(CC(=O)NCC(NC(=O)C(CCCNC(=O)c2cccc(I)c2)NC(=O)C(Cc2ccc(C(F)(F)P(=O)(O)O)cc2)NC(=O)c2ccc(C)c(Br)c2)C(N)=O)ccc1O (stereo not drawn) | mouse hepatocytes | Western blot |  | 1 h, no insulin | relative to: vehicle | GSK-3β phosphorylation | 2 fold |
| CC[C@@H]1C(=O)N(C)c2cnc(Nc3ccc(C(=O)NC4CCN(C)CC4)cc3OC)nc2N1C1CCCC1 | Bromodomain testis-specific protein, BD1 (BRDT, Homo sapiens, UniProt Q58F21) |  |  | 10 µM |  | delta Tm | 4.03 ± 0.13 °C |

For quick reference, copied from above:
| SMILES | tested on | test | system | conditions | scale | quantity | result |
| --- | --- | --- | --- | --- | --- | --- | --- |
| C[C@@]12CC[C@@H]3[C@@H](CC[C@H]4C[C@@H](O)CC[C@]43C)[C@H]1CC[C@@H]2c1cc(C(F)(F)F)n[nH]1 | NR3C1 | nuclear translocation, agonist, enzyme fragment complementation |  |  |  | EC50 | > 9000 nM |
| Cc1cccc(NC(=O)c2nn(Cc3cnc[nH]3)c3c2CN(C(=O)c2ccc[nH]2)CC3)c1 | IDH1 R132G AML cells | Hoechst/Pyronin Y staining |  | 3 µM, 7 days |  | G0-phase cells | 65.7 ± 6.5% |
| CCCCCCCC(=O)OCC(COP(=O)(O)OC1C(O)C(O)C(OP(=O)(O)O)C(OP(=O)(O)O)C1O)OC(=O)CCCCCCC (stereo not drawn) | PLCδ1 PH-ASAP1 chimera | membrane binding, sedimentation | LUVs with PtdSer |  |  | Kd | 700 nM and 730 nM |
